Measurements collected from several papers.
Numbered parts are unrelated; each lists some results of a single study. Values joined by “and” are separate records of one study, mostly repeats; a detail may differ.
UniProt Q9H2X6, sequence (whole entry, looked up): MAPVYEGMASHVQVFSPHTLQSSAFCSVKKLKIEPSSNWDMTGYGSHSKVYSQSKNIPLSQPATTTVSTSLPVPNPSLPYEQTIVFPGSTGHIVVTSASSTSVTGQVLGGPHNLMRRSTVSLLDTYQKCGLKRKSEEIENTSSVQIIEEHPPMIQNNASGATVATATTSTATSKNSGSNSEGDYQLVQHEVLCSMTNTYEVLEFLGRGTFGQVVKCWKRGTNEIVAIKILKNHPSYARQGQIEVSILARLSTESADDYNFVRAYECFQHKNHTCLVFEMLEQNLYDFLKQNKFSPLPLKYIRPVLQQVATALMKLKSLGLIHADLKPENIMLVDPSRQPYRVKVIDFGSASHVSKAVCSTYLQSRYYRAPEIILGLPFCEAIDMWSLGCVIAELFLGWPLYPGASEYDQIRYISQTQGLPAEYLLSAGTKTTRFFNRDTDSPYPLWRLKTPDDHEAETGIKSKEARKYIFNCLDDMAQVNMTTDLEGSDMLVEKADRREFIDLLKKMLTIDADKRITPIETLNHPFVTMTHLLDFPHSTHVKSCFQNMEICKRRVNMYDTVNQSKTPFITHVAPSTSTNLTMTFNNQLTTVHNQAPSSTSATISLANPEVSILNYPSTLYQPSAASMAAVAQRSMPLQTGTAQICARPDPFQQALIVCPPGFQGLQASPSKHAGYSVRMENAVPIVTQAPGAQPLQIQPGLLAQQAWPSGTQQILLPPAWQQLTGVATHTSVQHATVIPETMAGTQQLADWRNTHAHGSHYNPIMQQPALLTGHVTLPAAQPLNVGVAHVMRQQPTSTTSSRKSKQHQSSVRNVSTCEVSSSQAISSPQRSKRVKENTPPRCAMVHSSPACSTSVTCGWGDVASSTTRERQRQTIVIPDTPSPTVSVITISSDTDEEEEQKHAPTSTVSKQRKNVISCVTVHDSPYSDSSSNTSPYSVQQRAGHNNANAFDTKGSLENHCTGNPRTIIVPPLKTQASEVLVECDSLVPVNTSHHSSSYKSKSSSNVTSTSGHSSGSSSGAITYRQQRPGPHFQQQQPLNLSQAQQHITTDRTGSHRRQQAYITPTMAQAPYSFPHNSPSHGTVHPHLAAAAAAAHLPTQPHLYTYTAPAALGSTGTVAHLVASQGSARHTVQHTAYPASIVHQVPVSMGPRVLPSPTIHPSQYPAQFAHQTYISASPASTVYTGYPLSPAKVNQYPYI
UniProt P11802, sequence (whole entry, looked up): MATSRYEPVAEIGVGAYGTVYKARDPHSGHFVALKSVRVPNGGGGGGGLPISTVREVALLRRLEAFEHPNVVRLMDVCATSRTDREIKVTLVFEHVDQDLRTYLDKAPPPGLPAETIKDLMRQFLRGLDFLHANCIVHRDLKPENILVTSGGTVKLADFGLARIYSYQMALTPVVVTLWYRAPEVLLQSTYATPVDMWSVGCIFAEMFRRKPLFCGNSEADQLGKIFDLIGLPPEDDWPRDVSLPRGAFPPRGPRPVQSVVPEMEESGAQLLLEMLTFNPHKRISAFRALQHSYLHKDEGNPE
UniProt P06493, sequence (whole entry, looked up): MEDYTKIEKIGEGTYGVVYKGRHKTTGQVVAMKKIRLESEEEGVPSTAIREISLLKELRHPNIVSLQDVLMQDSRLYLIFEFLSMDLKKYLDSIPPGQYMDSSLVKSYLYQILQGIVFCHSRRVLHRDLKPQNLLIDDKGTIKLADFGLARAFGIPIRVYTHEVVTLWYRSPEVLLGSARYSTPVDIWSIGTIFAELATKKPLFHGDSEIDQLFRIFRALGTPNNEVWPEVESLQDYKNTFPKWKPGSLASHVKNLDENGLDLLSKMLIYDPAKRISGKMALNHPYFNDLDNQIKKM
UniProt P54762, sequence (whole entry, looked up): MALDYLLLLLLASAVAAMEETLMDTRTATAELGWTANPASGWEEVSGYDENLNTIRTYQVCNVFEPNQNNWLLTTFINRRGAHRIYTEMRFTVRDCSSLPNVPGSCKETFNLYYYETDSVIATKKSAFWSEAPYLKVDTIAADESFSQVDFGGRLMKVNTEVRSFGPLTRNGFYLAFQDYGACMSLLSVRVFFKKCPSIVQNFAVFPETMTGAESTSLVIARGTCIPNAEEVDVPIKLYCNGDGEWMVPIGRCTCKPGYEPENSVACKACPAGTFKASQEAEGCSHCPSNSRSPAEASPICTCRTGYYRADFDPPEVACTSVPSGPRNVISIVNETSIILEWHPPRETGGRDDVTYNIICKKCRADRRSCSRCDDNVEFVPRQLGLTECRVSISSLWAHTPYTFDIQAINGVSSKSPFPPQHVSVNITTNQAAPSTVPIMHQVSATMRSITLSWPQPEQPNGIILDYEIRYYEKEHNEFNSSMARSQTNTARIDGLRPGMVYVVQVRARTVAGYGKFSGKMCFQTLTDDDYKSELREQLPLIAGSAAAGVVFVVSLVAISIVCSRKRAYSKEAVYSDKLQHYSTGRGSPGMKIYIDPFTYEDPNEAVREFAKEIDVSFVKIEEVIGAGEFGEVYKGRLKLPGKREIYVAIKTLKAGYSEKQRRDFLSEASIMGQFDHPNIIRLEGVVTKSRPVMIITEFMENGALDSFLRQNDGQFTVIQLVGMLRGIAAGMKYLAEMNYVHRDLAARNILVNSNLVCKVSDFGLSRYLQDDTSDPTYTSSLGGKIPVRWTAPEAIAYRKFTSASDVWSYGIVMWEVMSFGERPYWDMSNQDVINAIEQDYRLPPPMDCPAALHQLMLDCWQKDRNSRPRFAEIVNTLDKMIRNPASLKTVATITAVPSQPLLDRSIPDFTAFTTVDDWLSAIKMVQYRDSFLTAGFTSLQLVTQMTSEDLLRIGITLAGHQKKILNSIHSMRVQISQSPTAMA
UniProt Q00534, sequence (whole entry, looked up): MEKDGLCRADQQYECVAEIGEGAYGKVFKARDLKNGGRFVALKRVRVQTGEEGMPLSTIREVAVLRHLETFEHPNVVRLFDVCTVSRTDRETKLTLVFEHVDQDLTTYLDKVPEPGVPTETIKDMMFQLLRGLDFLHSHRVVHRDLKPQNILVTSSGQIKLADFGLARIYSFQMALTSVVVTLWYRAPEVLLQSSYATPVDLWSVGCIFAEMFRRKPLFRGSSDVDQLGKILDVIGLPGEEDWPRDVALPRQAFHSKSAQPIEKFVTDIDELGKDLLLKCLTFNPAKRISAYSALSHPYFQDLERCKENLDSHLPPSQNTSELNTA
UniProt O15530, sequence (whole entry, looked up): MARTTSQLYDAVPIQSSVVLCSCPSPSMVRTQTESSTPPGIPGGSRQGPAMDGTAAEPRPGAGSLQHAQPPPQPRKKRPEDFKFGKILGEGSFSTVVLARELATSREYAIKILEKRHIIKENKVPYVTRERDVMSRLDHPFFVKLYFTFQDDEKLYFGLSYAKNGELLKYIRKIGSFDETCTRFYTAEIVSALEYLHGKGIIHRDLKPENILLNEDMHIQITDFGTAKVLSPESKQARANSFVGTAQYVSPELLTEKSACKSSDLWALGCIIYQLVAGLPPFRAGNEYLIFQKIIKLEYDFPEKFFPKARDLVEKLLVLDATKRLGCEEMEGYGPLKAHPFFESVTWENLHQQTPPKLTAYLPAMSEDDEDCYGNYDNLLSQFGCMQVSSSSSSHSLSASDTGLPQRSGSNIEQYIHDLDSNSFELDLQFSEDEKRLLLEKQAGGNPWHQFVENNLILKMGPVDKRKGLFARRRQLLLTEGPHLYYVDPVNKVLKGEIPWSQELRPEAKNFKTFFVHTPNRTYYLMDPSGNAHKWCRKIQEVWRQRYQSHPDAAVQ
UniProt Q16644, sequence (whole entry, looked up): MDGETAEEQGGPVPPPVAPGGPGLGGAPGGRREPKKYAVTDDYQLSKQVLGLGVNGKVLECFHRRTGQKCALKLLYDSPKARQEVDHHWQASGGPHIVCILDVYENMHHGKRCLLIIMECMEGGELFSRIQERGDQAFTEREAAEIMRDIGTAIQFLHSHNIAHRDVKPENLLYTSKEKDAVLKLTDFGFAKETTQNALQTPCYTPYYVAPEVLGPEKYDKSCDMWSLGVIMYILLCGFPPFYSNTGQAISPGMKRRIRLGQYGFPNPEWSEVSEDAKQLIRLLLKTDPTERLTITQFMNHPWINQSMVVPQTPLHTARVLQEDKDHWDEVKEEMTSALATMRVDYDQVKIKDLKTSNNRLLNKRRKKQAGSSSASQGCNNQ
UniProt O75716, sequence (whole entry, looked up): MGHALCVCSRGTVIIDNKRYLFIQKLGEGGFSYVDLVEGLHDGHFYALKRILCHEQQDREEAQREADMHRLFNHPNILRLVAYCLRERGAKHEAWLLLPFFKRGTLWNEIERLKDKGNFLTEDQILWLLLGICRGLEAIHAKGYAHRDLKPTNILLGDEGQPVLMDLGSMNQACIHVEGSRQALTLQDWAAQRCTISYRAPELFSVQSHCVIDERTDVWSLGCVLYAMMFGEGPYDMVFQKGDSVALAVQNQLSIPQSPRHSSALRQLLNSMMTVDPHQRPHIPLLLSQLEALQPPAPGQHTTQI
UniProt Q13554, sequence (whole entry, looked up): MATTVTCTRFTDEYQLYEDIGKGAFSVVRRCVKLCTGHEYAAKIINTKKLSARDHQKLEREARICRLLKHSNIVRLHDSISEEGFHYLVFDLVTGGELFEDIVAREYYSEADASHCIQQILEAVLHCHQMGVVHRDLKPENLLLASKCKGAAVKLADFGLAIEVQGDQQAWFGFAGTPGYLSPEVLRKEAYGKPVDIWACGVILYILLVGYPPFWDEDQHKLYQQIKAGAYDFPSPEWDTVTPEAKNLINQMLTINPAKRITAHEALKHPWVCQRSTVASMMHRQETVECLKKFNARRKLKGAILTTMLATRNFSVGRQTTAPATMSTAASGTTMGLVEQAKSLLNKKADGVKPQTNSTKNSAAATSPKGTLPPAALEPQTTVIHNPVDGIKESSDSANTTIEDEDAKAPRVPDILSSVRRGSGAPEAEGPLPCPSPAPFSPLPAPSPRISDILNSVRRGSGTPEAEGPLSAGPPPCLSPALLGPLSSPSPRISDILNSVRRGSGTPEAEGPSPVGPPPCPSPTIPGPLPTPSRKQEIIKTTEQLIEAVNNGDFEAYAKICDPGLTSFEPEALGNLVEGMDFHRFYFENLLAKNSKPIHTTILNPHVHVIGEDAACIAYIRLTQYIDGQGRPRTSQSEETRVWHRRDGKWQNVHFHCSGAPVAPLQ

Series 1
SMILES: O=C1C(Cl)=C(N2C(=O)CCC2=O)C(=O)c2ccccc21
Read-out: enzyme activity
Mode: inhibitor
Tested at: 0.5 µM
Reference: control
target | remaining activity
RPS6KA6 (Homo sapiens, UniProt Q9UK32) | 99.9%
HIPK2 (Homo sapiens, UniProt Q9H2X6) | 104%
CAMK2B (Homo sapiens, UniProt Q13554) | 106%
PRKACG (Homo sapiens, UniProt P22612) | 95.1%
WNK3 (Homo sapiens, UniProt Q9BYP7) | 96.4%
STK17A (Homo sapiens, UniProt Q9UEE5) | 101%
MAP4K4 (Homo sapiens, UniProt O95819) | 93.7%
EPHA4 (Homo sapiens, UniProt P54764) | 101%
DYRK3 (Homo sapiens, UniProt O43781) | 95.4%
Cyclin-dependent kinase 1, with cyclin B (CDK1, Homo sapiens, UniProt P06493) | 118%
Cyclin-dependent kinase 4, with cyclin D3 (CDK4, Homo sapiens, UniProt P11802) | 107%
EPHB4 (Homo sapiens, UniProt P54760) | 98.7%
STK16 (Homo sapiens, UniProt O75716) | 100%
PHKG1 (Homo sapiens, UniProt Q16816) | 96.5%
MAPKAPK3 (Homo sapiens, UniProt Q16644) | 103%
TSSK2 (Homo sapiens, UniProt Q96PF2) | 103%
PDPK1 (Homo sapiens, UniProt O15530) | 100%
EPHB1 (Homo sapiens, UniProt P54762) | 97.2%
Cyclin-dependent kinase 6, with cyclin D3 (CDK6, Homo sapiens, UniProt Q00534) | 99.2%
HIPK4 (Homo sapiens, UniProt Q8NE63) | 98.2%

Series 2
Cell line: normal organoid sample H
Technique: CellTiter-Glo
Species: human
Tested at: 1 µM
Time: 4 days
Reference: DMSO
SMILES | viability
Cc1c(NC(=O)c2cc(C(N)=O)nc3cc(F)ccc23)c(C(F)(F)F)nn1Cc1ccc(C#N)cc1 | 10.1% and 9.3%
C[C@H](c1ccnc(Nc2nc3ccc(-c4cc(N(C)C)ncn4)cc3[nH]2)c1)N1CCN(C(=O)CC(F)(F)F)CC1 | 102% and 97.1%
CCCCN(Cc1ccccc1)C(=O)c1ccc(S(=O)(=O)Nc2ccccc2)cc1 | 114% and 105%
C[C@H](c1ccc(F)cc1)N(Cc1cccc(C(=O)O)c1)C(=O)c1cnc2ccccc2c1 | 116% and 91.8%
CN(C)c1ncnc(-c2ccc3nc(Nc4cc(CN5CCN(C(=O)CC(F)(F)F)CC5)ccn4)[nH]c3c2)c1Cl | 109% and 79.9%
CCCCN(CCCC)C(=O)CN1C[C@@H](c2cc(OC)c3c(c2)OCO3)[C@H](C(=O)O)[C@H]1CC(C)(C)CCC | 104% and 101%
C[C@H](c1ccc(F)cc1)N(Cc1ccc(Cl)c(C(=O)O)c1)C(=O)c1cnc2ccccc2c1 | 97.8% and 98.7%
C[C@H](NC(=O)c1cnc2n1[C@](C)(Cc1ccc(C#N)cc1)C(=O)N2c1cc(Cl)c(F)c(Cl)c1)C(=O)NC1(c2ccccn2)CC1 | 106%
NS(=O)(=O)c1cc(NC(=O)Cc2ccccc2)ccc1Oc1cccc(Cl)c1 | 117% and 133%
C[C@@]1(Cc2ccc(C#N)cc2)C(=O)N(c2cc(Cl)cc(Cl)c2)c2ncc(C(=O)NC3(c4nc(C5CCC5)no4)CC3)n21 | 107% and 79.3%
NS(=O)(=O)c1cc(NC(=O)C2(c3ccccc3Cl)CC2)ccc1Oc1cccc(Cl)c1 | 95.4% and 82.6%
CN(c1ccnc(CNc2nc(Nc3ccc4c(c3)CC(=O)N4)ncc2C(F)(F)F)n1)S(C)(=O)=O | 113% and 124%

Series 3
Species: human
Matrix: microsomes or S9
Tested at: 2 µM
Time: 0.5 h
SMILES | remaining compound [%]
Cc1csc(-c2noc(Cc3csc(C(C)C)n3)n2)n1 | 44.2
COc1ccc(-c2ncnc3nc4n(c23)CCC4)cc1 | 71.6
O=C(Cn1cncn1)c1ccc(-c2ccccc2)cc1 | 26.8
CC(=O)N(c1ccccc1)C(c1ccccc1)c1nc2ccccc2nc1O (stereo not drawn) | 76.4
Cc1cc(-c2[nH]c3[nH]c(=O)[nH]c(=O)c3c2-c2cc(C)sc2C)c(C)s1 | 26.9
O=C(CC1c2ccccc2Oc2ccccc21)N1CCCC1c1nc(-c2ccncc2)n[nH]1 (stereo not drawn) | 84.7
c1ccc2c(c1)OCC(c1nn3c(Cn4cnc5ccccc54)nnc3s1)O2 (stereo not drawn) | 13.7
CCCc1cc(NC(=O)c2ccccc2-n2ccnn2)n[nH]1 | > 100
CC(C)Cc1ccc(C(C)C(=O)NCCNC(=O)C2CCCNC2=O)cc1 (stereo not drawn) | 13.9
CC(C)N(CCNc1ncnc2nc[nH]c12)C(C)C | 57

Series 4
Technique: PRP chromatography estimate
Matrix: 1,9-decadiene/PBS
pH: 7.4
SMILES | logD
CC(C)C[C@@H]1NC(=O)[C@H](CC(C)C)NC(=O)[C@@H](C(C)C)NC(=O)[C@H](CC(C)C)NC(=O)[C@H](C(C)C)NC(=O)[C@H](C)NC(=O)[C@H](C)NC1=O | -1.41
CC(C)C[C@@H]1NC(=O)[C@H](CC(C)C)NC(=O)[C@@H](C(C)C)NC(=O)[C@H](C)NC(=O)[C@@H](Cc2cscn2)NC(=O)[C@@H](CC(C)C)NC(=O)[C@H](C)NC1=O | -1.77
CC(C)C[C@@H]1NC(=O)[C@@H](C)NC(=O)[C@H](C)NC(=O)[C@H](C)NC(=O)[C@H](C(C)C)NC(=O)[C@H](CC(C)C)NC(=O)[C@@H](CC(C)C)NC1=O | -2.44
CC(C)C[C@@H]1NC(=O)[C@H](C)NC(=O)[C@@H](CC(C)C)NC(=O)[C@H](CC(C)C)NC(=O)[C@H](C(C)C)NC(=O)[C@H](CC(C)C)NC(=O)[C@@H](CC(C)C)NC1=O | 0.643
CC(C)C[C@@H]1NC(=O)[C@H](CC(C)C)NC(=O)[C@@H](CC(C)C)NC(=O)[C@@H](CC(C)C)NC(=O)[C@@H](CCC(=O)N2CCCC2)NC(=O)[C@H](CC(C)C)NC(=O)[C@@H](CC(C)C)NC1=O | 1.13
CC(C)C[C@@H]1NC(=O)[C@H](C(C)C)NC(=O)[C@@H](CC(C)C)NC(=O)[C@@H](CC(C)C)NC(=O)[C@H](C(C)C)NC(=O)[C@H](CC(C)C)NC(=O)[C@@H](CC(C)C)NC1=O | 2.08
CC(C)C[C@@H]1NC(=O)[C@H](C)NC(=O)[C@@H](CC(C)C)NC(=O)[C@H](CC(C)C)NC(=O)[C@@H](CCC(=O)N2CCCC2)NC(=O)[C@H](CC(C)C)NC(=O)[C@@H](CC(C)C)NC1=O | -0.31
CC(C)C[C@@H]1NC(=O)[C@H](C)NC(=O)[C@H](CCC(=O)N2CCCC2)NC(=O)[C@H](C)NC(=O)[C@H](CC(C)C)NC(=O)[C@H](CC(C)C)NC(=O)[C@@H](C(C)C)NC1=O | -2.66
CC(C)C[C@@H]1NC(=O)[C@H](C(C)C)NC(=O)[C@H](Cc2cscn2)NC(=O)[C@H](CC(C)C)NC(=O)[C@@H](CCC(=O)N2CCCC2)NC(=O)[C@H](CC(C)C)NC(=O)[C@@H](CC(C)C)NC1=O | -0.566
CC(C)C[C@@H]1NC(=O)[C@H](C)NC(=O)[C@H](C)NC(=O)[C@@H](CC(C)C)NC(=O)[C@H](C)NC(=O)[C@H](CC(C)C)NC(=O)[C@H](CC(C)C)NC1=O | -1.82
CC(C)C[C@@H]1NC(=O)[C@@H](C)NC(=O)[C@@H](CC(C)C)NC(=O)[C@@H](C(C)C)NC(=O)[C@H](C)NC(=O)[C@H](CC(C)C)NC(=O)[C@@H](CC(C)C)NC1=O | -0.495
CC(C)C[C@@H]1NC(=O)[C@H](CC(C)C)NC(=O)[C@H](CC(C)C)NC(=O)[C@H](CC(C)C)NC(=O)[C@H](C(C)C)NC(=O)[C@H](Cc2cscn2)NC(=O)[C@H](C)NC1=O | -0.108
CC(C)C[C@@H]1NC(=O)[C@H](CC(C)C)NC(=O)[C@H](CC(C)C)NC(=O)[C@H](CC(C)C)NC(=O)[C@@H](CCC(=O)N2CCCC2)NC(=O)[C@H](C)NC(=O)[C@H](C)NC1=O | -2.02
CC(C)C[C@@H]1NC(=O)[C@H](C)NC(=O)[C@H](CCC(=O)N2CCCC2)NC(=O)[C@H](CC(C)C)NC(=O)[C@@H](CCC(=O)N2CCCC2)NC(=O)[C@H](CC(C)C)NC(=O)[C@@H](CC(C)C)NC1=O | -1.85
CC(C)C[C@@H]1NC(=O)[C@@H](C)NC(=O)[C@H](C)NC(=O)[C@@H](CC(C)C)NC(=O)[C@H](C(C)C)NC(=O)[C@H](CC(C)C)NC(=O)[C@@H](CC(C)C)NC1=O | -0.562

For quick reference, copied from above (series 1):
target | remaining activity
PDPK1 (Homo sapiens, UniProt O15530) | 100%
EPHB1 (Homo sapiens, UniProt P54762) | 97.2%
Cyclin-dependent kinase 6, with cyclin D3 (CDK6, Homo sapiens, UniProt Q00534) | 99.2%
